# Measured values pooled from the literature.
# Compare with care: the assays were run in different laboratories. Several values in a cell are separate wells, animals, samples, runs or records. Numbers after ± are the reported error.
Compound,assay,system,conditions,scale,endpoint,result
O=C(Nc1ccc(OC(F)(F)Cl)cc1)c1cnc(N2CC[C@@H](O)C2)c(-c2ccn[nH]2)c1,"per laboratory record, measured: triglyceride increase",human patients,"oral, dose not given, dose-finding study",,any-grade event rate,32.6%
CNC(=O)c1cc(Oc2ccc(NC(=O)Nc3cc(C(C)(C)C)nn3-c3ccc4ncccc4c3)c(F)c2)ccn1,measured: worst grade 1,human,"oral, dose not given, cycles 1 and 2, Low Cmax subgroup",,patients with nervous system disorder AE,12%
CCN1CCN(Cc2ccc(NC(=O)c3ccc(C)c(NC(=O)c4cncc(-c5cccs5)c4)c3)cc2C(F)(F)F)CC1,LC-MS/MS,"C57BL/6 mouse, plasma","intraperitoneal, 20 mg/kg single dose, 2 h",,plasma concentration,357 ng/mL and 285 ng/mL and 288 ng/mL
COc1ccc(C[C@@H](C)[C@@H](C)Cc2ccc(OC)c(OC)c2)cc1OC,,"beagle dog female, plasma","oral, 300 mg/kg/day, day 1",,AUC(0-t),29900 ± 26900 ng·h/mL
CCOc1c([C@H](C)n2nc(C)c3c(N)ncnc32)cc(Cl)c(F)c1[C@@H]1CNC(=O)C1,,"patients with B-cell malignancies, plasma","oral, 30 mg, day 15, monotherapy",,half-life geometric mean,9.1 h
C[C@H]1Oc2cc(cnc2N)-c2c(nn(C)c2C#N)CN(C)C(=O)c2ccc(F)cc21,population PK,"healthy participants and patients, plasma","oral, 100 mg, mean, single dose",,clearance,150 mL/min
COc1ccnc(C(=O)NC(CO)C(=O)O)c1O (racemic),aerobic dark soil incubation,sandy loam soil,"20 °C, persistence endpoint",,DT50,0.64 days
CC[C@H](C)[C@H](NC(=O)[C@H](Cc1ccccc1)NC(=O)[C@H](CCC(=O)O)NC(=O)[C@H](CCCCNC(=O)COCCOCCNC(=O)COCCOCCNC(=O)CC[C@H](NC(=O)CCCCCCCCCCCCCCCCC(=O)O)C(=O)O)NC(=O)[C@H](C)NC(=O)[C@H](C)NC(=O)[C@H](CCC(N)=O)NC(=O)CNC(=O)[C@H](CCC(=O)O)NC(=O)[C@H](CC(C)C)NC(=O)[C@H](Cc1ccc(O)cc1)NC(=O)[C@H](CO)NC(=O)[C@H](CO)NC(=O)[C@@H](NC(=O)[C@H](CC(=O)O)NC(=O)[C@H](CO)NC(=O)[C@@H](NC(=O)[C@H](Cc1ccccc1)NC(=O)[C@@H](NC(=O)CNC(=O)[C@H](CCC(=O)O)NC(=O)C(C)(C)NC(=O)[C@@H](N)Cc1cnc[nH]1)[C@@H](C)O)[C@@H](C)O)C(C)C)C(=O)N[C@@H](C)C(=O)N[C@@H](Cc1c[nH]c2ccccc12)C(=O)N[C@@H](CC(C)C)C(=O)N[C@H](C(=O)N[C@@H](CCCNC(=N)N)C(=O)NCC(=O)N[C@@H](CCCNC(=N)N)C(=O)NCC(=O)O)C(C)C,12-lead Holter ECG,healthy humans,"subcutaneous, 1.5 mg once weekly, 25 h, steady state",reference: placebo,QTcB change from baseline,10.4 ms
O=C(Nc1nc2cccc(-c3ccc(CN4CCS(=O)(=O)CC4)cc3)n2n1)C1CC1,measured: immune system disorders,human rheumatoid arthritis patients,"oral, 75 mg once daily, 4 weeks, regardless of relatedness",,treatment-emergent adverse events,0%
CCc1nn(C)c2nc(-c3ccc(C(=O)O)cc3)nc(NCc3ccc(F)cc3)c12,,NSG mice,"dose not given, day 7 of treatment",,body weight,22.6 g and 21.3 g and 18.8 g and 20.8 g
COc1c(OCCCN2CCOCC2)ccc2c1N=C(NC(=O)c1cnc(N)nc1)N1CCN=C21,,relapsed iNHL patients,"intravenous, 60 mg",,grade 3 or worse TEAEs,91%
O=C(Nc1c2c(cc3c1CCC3)CCC2)NS(=O)(=O)/C=C/c1nccs1,,rat liver microsomes,1 µM,,metabolic rate,0.006 nmol/min/mg protein
CNC(=O)c1ccc(-c2cnc3ncc(Cc4ccc5ncccc5c4)n3n2)cc1F,,Japanese patients,"oral, 400 mg, any grade",,γGT increased dose reduction/interruption,1%
Nc1ncnc2c1ncn2[C@H]1C[C@@H]2OP(=O)(O)OC[C@H]3O[C@@H](n4cnc5c(N)ncnc54)C[C@@H]3OP(=O)(O)OC[C@H]2O1,,"non-tumour-bearing mice, blood","intravenous, 1 mg/kg",,albumin to globulin ratio,1.35 ± 0.25
Cc1cc(NC2CCN(C(=O)OC3CCN(C(=O)/C=C/CN(C)C)C3)CC2)n2ncc(C(C)C)c2n1 (stereo not shown),"Phase I dose escalation CTCAE v4.0, measured: Arthralgia",patients with advanced solid tumours,"dose not given, TIW dosing any grade",,patients with adverse event,0%
C[C@@H](Nc1cc(F)cc(F)c1)c1cc(C(=O)N(C)C)cc2c(=O)cc(N3CCOCC3)oc12,,advanced solid tumour patients,"oral, 60 mg twice daily, continuous monotherapy",,any dose interruption,33.3%
Cc1cccc(CNC(=O)c2cn(CCNC(=O)c3ccccc3S)c3cc4c(cc3c2=O)OC(F)(F)O4)n1,,"Sprague-Dawley rat, male, whole blood","intramuscular, 3 mg/kg of parent compound",,AUC(0-t),2310 ± 964 ng·h/mL
O=C1CCc2ccc(OCCCCN3CCN(c4cccc(Cl)c4Cl)CC3)cc2N1,measured: Rigidity,"genotyped patients, CYP2D6 normal metabolizers","dose not given, long-acting oral or depot",,adverse event incidence,4.1%
C=CC(=O)Nc1cc(Nc2nccc(-c3cn(C)c4ccccc34)n2)c(OC)cc1N(C)CCN(C)C,storage stability,human dried blood spot samples,"30 d, -80 °C, HQC level",reference: nominal concentration,percentage recovery,43.6%
Cc1ccc([C@@H]2O[C@H](CO)[C@@H](O)[C@H](O)[C@H]2O)cc1Cc1ccc(-c2ccc(F)cc2)s1,,Japanese type 2 diabetes patients,"200 mg, day 16, 24 h urine collection",reference: baseline,urinary potassium excretion change,2.96 mEq
C=CCN1CC(=O)N2[C@@H](Cc3ccc(O)cc3F)C(=O)N(Cc3cccc(N4CC(N5CCN(CC)CC5)C4)n3)C[C@@H]2N1C(=O)NCc1ccccc1,measured: Nausea,advanced solid tumour patients,"oral, 100 mg twice daily, expansion part, grade ≥3",,treatment-related adverse events,0%
CC(C)(C(=O)N1CCOc2c(C#N)cncc2C1)C(F)F,,"healthy humans, both sexes, plasma","oral, 30 mg single dose, 3-fold dose increase",reference: 30 mg over 10 mg,AUClast dose proportionality ratio,2.16
CCc1nc(C(N)=O)c(Nc2ccc(N3CCC(N4CCN(C)CC4)CC3)c(OC)c2)nc1NC1CCOCC1,,"Japanese patients, plasma","oral, 40 mg, cycle 0 day -2, single dose, mean",,Cmax,29.8 ng/mL
COc1cccc(-c2n[nH]c(SCc3ccccn3)n2)c1OC,,"Sprague-Dawley rats, both sexes","oral dietary, 10 mg/kg/day, day 7, 24 h",,plasma concentration,142 ng/mL
CCc1cc2c(cc1CC)CC(NC[C@H](O)c1ccc(O)c3[nH]c(=O)ccc13)C2,equilibrium dialysis,"rat, lung homogenate",,,fraction unbound,0.0026
CC(C)n1c(Nc2cccnc2)nc2cnc(Nc3ccc(N4CCN(C)CC4)cc3)nc21,measured: platelet count decreased,"healthy human, male","oral, dose not given, CTCAE grade 1-3",,subjects with TEAE,2.4%
C=CCn1c(=O)c2cnc(Nc3ccc(N4CCN(C)CC4)cc3)nc2n1-c1ccc2c(n1)[C@@](O)(CC)CC2,,"female NOD/SCID mouse OVCAR-3 xenograft, plasma","oral, 90 mg/kg once daily, :3",,Cmax,5670 ng/mL
NS(=O)(=O)OC[C@@H]1C[C@@H](n2ccc3c(N[C@H]4CCc5ccccc54)ncnc32)C[C@@H]1O,"LC-MS/MS, non-compartmental","human, plasma","intravenous, all dose levels, cycle 1 day 8, median, together with: irinotecan/temozolomide",,AUC(0-24h),1340 ng·h/mL
COc1ccc2c3c([nH]c2c1)[C@H](CC(C)C)N1C(=O)[C@H](CC(=O)NC(C)C)NC(=O)[C@@H]1C3,,wild-type mouse,"oral, 100 mg/kg daily, 23 days",,liver to body weight ratio,4.63% and 4.67%
C[C@@H]1CCO[C@H]2Cn3cc(C(=O)NCc4ccc(F)cc4F)c(=O)c(O)c3C(=O)N12,"population PK, post-hoc","infants aged ≥1 months, 3 to <6 kg, plasma","oral, 10 mg dispersible tablet, 24 h, steady state, geometric mean",,plasma concentration,1190 ng/mL
O=C(COc1ccc(Cl)cc1)NC12CC(c3nnc([C@H]4C[C@@H](OC(F)(F)F)C4)o3)(C1)C2,measured: catheter site pain,"healthy humans, both sexes","oral, 400 mg, single ascending dose",reference: subjects,treatment-emergent adverse events,16.7%
CCNC(=O)[C@@H]1CCCN1C(=O)[C@H](CCCNC(=N)N)NC(=O)[C@H](CC(C)C)NC(=O)[C@@H](CC(C)C)NC(=O)[C@H](Cc1ccc(O)cc1)NC(=O)[C@H](CO)NC(=O)[C@H](Cc1c[nH]c2ccccc12)NC(=O)[C@H](Cc1c[nH]cn1)NC(=O)[C@@H]1CCC(=O)N1,,healthy female volunteers,"dose not given, all treatment groups combined",,nausea incidence,43%
O=C(N[C@H](Cc1c[nH]c2ccccc12)C(=O)Nc1ccncc1)c1ccc(-c2cc(C(F)(F)F)ccc2F)cc1F,,"Swiss Webster mouse, female, intestine","oral, 50 mg/kg, 8 h, 20% Kolliphor vehicle",,concentration,53.8 µM
O=C(O)CCCOc1ccc([18F])cc1-c1cc(-c2ccccc2C(F)(F)F)n(-c2ccccc2)n1,gamma counting,"male ddY mice, heart","intravenous, 2.1 MBq, 1 min",,radioactivity uptake,3.17 ± 1.02 SUV
N#Cc1ccc2c(c1)[C@H]1CCCN(C(=O)c3ccc4[nH]cnc4c3)[C@H]1C2,,human males,"20 mg, end of trial",,DHEA-S level,6.4 µmol/L
CCCCN(Cc1c(-c2ccccn2)nc2ccc(C)cn12)c1ccc(F)cc1,,"peritoneal macrophages, Swiss mice","5 days, 5% fetal calf serum",,CC50,31.6 µM
C[C@@H]1CN(CC(=O)N2CC(C)(C)c3nc(CO)c(Cc4ccc(F)cc4)cc32)[C@@H](CN2CCOC[C@H]2C)CN1,,"male Sprague Dawley rats, bile duct cannulated, urine and bile","intravenous, 5 mg/kg, 24 h",reference: dose,unchanged drug excreted,~40%
CCc1nc(C(N)=O)c(Nc2ccc(N3CCC(N4CCN(C)CC4)CC3)c(OC)c2)nc1NC1CCOCC1,,"female FVB mice, wild-type, plasma","oral, 10 mg/kg, single dose",,Tmax,1 h
COc1ccc(/S(C)=N\C(=O)C(C)(C)C)cc1 (stereo not shown),,human liver microsomes,,reference: hepatic blood flow,metabolic stability,27%
CC[C@H](C)CCCCC(=O)N[C@@H](CCN)C(=O)N[C@H](C(=O)N[C@@H](CCN)C(=O)N[C@H]1CCNC(=O)[C@H]([C@@H](C)O)NC(=O)[C@H](CCN)NC(=O)[C@H](CCN)NC(=O)[C@H](CC(C)C)NC(=O)[C@@H](Cc2ccccc2)NC(=O)[C@H](CCN)NC1=O)[C@@H](C)O,measured: infections and infestations,all subjects,"intravenous, 0.75 mg/kg",,adverse event incidence,4.55%
CNC(=O)c1ccc(-c2cnc3ncc(Cc4ccc5ncccc5c4)n3n2)cc1F,,human mild hepatic impairment NCI,"oral, 200 mg single dose, mean",,AUC(0-t),7190 ng·h/mL
COc1cc2c(cc1OC)C(=O)C(CC1CCN(Cc3ccccc3)CC1)C2 (stereo not shown),,human subjects,unit not given,reference: placebo,LSEQ quality of sleep,7.3
N#Cc1ccc2c(c1)[C@H]1CCCN(C(=O)c3ccc4[nH]cnc4c3)[C@H]1C2,,"human, plasma","240 mg once daily, day 2",,pre-dose plasma concentration,2550 nmol/L
